# Results from different studies.
# Each line is one published result; not all experiments were run side by side. “And” joins repeats or separate records; there may be more than shown.
# B1: chain MTPELNWRHEFGEIRVTFSIFNRFWLNWMDRSDRIIMIAQMHYTVAVVGSEAGRSLFAPPAY
Molecule,tested on,test,system,setting,scale,endpoint,result
TASPAKETSF,human MAGI1-3/6 PDZ construct (MBP fusion),automated holdup,"peptide, crude extract","concentration not given, uncorrected, unit not given","reference: biotin control resin, higher = stronger binding",binding intensity,-0.211
MTPELNWRHEFGEIRVTFSI,Escherichia coli,bacterial growth,"peptide, DH5α",concentration not given,reference: with over without arabinose induction,log fold change,4.64
Polymyxin B,Escherichia coli,,ATCC 25922,"concentration not given, together with: NaCl 150 mM",reference: no added salt,MIC fold change,2 fold
colistin,Escherichia coli,broth microdilution,ATCC 25922,,,MIC,0.125 µg/mL
colistin,Escherichia coli,,"ATCC 25922, female ICR mice, subcutaneous infection, infected skin",dose not given,,bacterial load,7.97 log CFU/g and 8.33 log CFU/g and 7.66 log CFU/g and 8.37 log CFU/g and 8.59 log CFU/g
gentamicin,Escherichia coli,time-kill,,"1 x MIC, 90 min",,viable count,0.3 log CFU/mL
B1,Escherichia coli,bacterial growth,DH5α,concentration not given,reference: with over without arabinose induction,log fold change,3.78
polymyxin B,Escherichia coli,broth microdilution,ATCC 25922,various colistin salts,,MIC,0.06 µg/mL
Triton X-100,Escherichia coli,"potentiator, checkerboard",tet efflux pump expressing,"1700 µM, together with: tetracycline",,FIC index,1
bacitracin,Escherichia coli,,CGMCC 1.9,"concentration not given, 18 h, 37 °C",,inhibition zone diameter,0 mm
polymyxin B,Escherichia coli,"XTT, preformed biofilm",ATCC BAA-2452,"2 × MIC, 24 h",,biofilm mass reduction,65%
GSGAGKESYV,human MAGI1-2/6 PDZ construct (MBP fusion),automated holdup,"peptide, crude extract","concentration not given, uncorrected, unit not given","reference: biotin control resin, higher = stronger binding",binding intensity,0.446
Polymyxin B,Escherichia coli,,ATCC 25922,"250 µg per disc, 24 h, 37 °C",,inhibition zone diameter,18 mm
colistin,Escherichia coli,checkerboard,tetracycline-resistant (pBR322),"0.0156 µM, together with: tetracycline",,tetracycline MIC,450 µM
Polymyxin B,Escherichia coli,,ATCC 25922,,reference: 5% CO2 over ambient air,fold MIC shift,0.5
MTPELNWRHEFGEIR,Escherichia coli,bacterial growth,"peptide, DH5α","concentration not given, 37 °C",reference: with over without arabinose induction,fold change,18.9
colistin,Escherichia coli,,clinical isolate RKI 1023/14,,,MIC,≤ 0.5 µg/mL

# Repeated from above:
Molecule,tested on,test,system,setting,scale,endpoint,result
B1,Escherichia coli,bacterial growth,DH5α,concentration not given,reference: with over without arabinose induction,log fold change,3.78
TASPAKETSF,human MAGI1-3/6 PDZ construct (MBP fusion),automated holdup,"peptide, crude extract","concentration not given, uncorrected, unit not given","reference: biotin control resin, higher = stronger binding",binding intensity,-0.211
